Experimental data of several laboratories.
Every numbered part comes from another study and shows a few of its results, in no order. Changes are numbered by the printed parent chain.

Series 1 — target: CCNB1, cyclin fold, Cln2 fusion (human); method: yeast growth competition, sequencing; medium: yeast; setting: strong parent motif; baseline: not given; reading: higher = stronger binding
Parent: MASTL docking peptide (human); PMIAKNLMCELDE; partner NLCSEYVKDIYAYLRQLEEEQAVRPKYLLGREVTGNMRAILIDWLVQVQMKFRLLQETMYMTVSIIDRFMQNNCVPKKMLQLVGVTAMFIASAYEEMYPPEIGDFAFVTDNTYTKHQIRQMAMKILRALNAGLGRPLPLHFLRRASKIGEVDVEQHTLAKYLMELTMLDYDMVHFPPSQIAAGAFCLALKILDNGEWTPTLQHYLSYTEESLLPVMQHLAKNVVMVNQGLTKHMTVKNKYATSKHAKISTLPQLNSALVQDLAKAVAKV
| Change | normalised enrichment score |
| --- | --- |
| PMIAKCLMCELDE [N6C] | 0.832 |
| PMIAKNLSCELDE [M8S] | 0.667 |
| PMTAKNLMCELDE [I3T] | 0.706 |
| PMIAKNLRCELDE [M8R] | 0.106 |
| PMIAKNLQCELDE [M8Q] | 0.522 |
| PMIAKNLMCEADE [L11A] | 0.08 |
| PMIAKLLMCELDE [N6L] | 0.116 |
| PMIAENLMCELDE [K5E] | -0.126 |
| PMIAKNLMCTLDE [E10T] | 0.275 |
| PMIAKNLMCEGDE [L11G] | 0.143 |
| PGIAKNLMCELDE [M2G] | 2.76 |
| PMIIKNLMCELDE [A4I] | 2.7 |
| PMIAKNLMCEVDE [L11V] | 0.0339 |
| PMIAKNLMCALDE [E10A] | 0.795 |
| PMIAKNLECELDE [M8E] | 1.01 |
| PMIAKNYMCELDE [L7Y] | 0.0366 |
| PMIAKNLMCELLE [D12L] | 0.821 |
| PMIAKNLMIELDE [C9I] | 1.79 |
| PMIAKNLGCELDE [M8G] | 0.384 |
| PMIAKNLMCELNE [D12N] | 1.48 |
| PMIAKNLMCELTE [D12T] | 1.33 |
| PMIAKNLMCERDE [L11R] | -0.14 |
| PMIAKNLMCEIDE [L11I] | 0.76 |
| PMIAMNLMCELDE [K5M] | 0.633 |
| PMIAKNLMCELRE [D12R] | 0.411 |

Series 2 — method: DHFR PCA, deep sequencing; medium: yeast; together with: (+)-ABA 710 µM; baseline: wild-type fitted maximum; reading: higher = stronger binding
Target: ABI1, truncated, D143A, DHFR fusion (Arabidopsis thaliana)
Setting: methotrexate growth selection, single substitutions
Parent: PYL1, truncated, DHFR fusion (Arabidopsis thaliana); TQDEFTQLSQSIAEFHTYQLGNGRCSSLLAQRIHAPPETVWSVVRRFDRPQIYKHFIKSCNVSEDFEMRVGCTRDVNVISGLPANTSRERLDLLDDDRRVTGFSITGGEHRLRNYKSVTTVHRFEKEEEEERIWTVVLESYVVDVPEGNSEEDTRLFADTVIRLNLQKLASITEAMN; partner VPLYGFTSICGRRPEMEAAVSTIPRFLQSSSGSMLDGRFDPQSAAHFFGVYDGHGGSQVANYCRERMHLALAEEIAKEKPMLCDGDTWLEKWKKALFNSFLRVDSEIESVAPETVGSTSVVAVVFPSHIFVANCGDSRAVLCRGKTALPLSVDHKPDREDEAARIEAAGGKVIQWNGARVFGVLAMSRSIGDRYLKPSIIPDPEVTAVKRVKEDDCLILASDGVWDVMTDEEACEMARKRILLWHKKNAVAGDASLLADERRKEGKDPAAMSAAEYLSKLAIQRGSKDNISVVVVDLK
| Change | relative binding score |
| --- | --- |
| S9V | 96.7% |
| N177E | 80.1% |
| K168Y | 86.8% |
| G71R | 61.1% |
| L138M | 97.5% |
| D144H | 78.3% |
| Y115S | 6.53% |
| W134Y | 116% |
| T173Y | 72.9% |
| E128G | 112% |
| E125W | 96.1% |
| D159L | 27.1% |
| S104Q | 81.2% |

Series 3 — method: competition protein-binding microarray; molecule type: double-stranded DNA, one strand shown; medium: in vitro; concentration: 2 µM; together with: Pho4 competitor, 0.05 µM; reading: higher = stronger binding; shared flanks, not repeated: … GTCTTGATTCGCTTGACGCTGCTG
Target: Centromere-binding protein 1, full length, His-tagged (CBF1, Saccharomyces cerevisiae, UniProt P17106, residues 1-351)
Chain of UniProt P17106 (whole entry, looked up): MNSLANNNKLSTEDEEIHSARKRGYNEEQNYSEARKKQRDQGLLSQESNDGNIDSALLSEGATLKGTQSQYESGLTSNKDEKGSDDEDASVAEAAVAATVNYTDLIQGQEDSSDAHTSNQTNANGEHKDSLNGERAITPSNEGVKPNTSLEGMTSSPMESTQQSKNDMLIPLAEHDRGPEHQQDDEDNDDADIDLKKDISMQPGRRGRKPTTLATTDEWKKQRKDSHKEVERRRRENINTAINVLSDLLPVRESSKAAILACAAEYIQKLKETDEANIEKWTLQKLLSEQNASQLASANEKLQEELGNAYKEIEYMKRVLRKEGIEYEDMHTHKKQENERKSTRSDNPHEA
Setting: whole 60-bp probe, lowest competitor level
| Oligonucleotide | fluorescence intensity [a.u.] |
| --- | --- |
| AAAGCGGTAATTTGCAGAGTGGGTGCAGATATCTAT | 74.6 |
| TGTCTGGGACCGCTTCACGGGTCCAAATTACCACTT | 81.7 |
| CGGGGTTAAGTTTGTCGTGTGGGTGGCTTGCAGCAG | 77 |
| TCTTGTTCGGCCGGTAGCGTGCCGATTCAGGTAACG | 73 |
| AAATTACTAAGTTGTCACGTGTTTTACCCCGTATGA | 6410 |
| CCCCGCTCTTGTTTTCGCGTGCCGATTCTACAATAA | 102 |
| CGGGGTTAAGTTTGTCTGGTGGGTGGCTTGCAGCAG | 77.4 |
| AAAGCTGCGGTAAGGCAGGTGATGCTGATTATTAGC | 186 |
| AAATTACTAAGTTTTCACGTGGAGTACCCCGTATGA | 559 |
| CGTCCTAGTGATTGCCGTGTGGGTGCCATGAGGAAG | 78.3 |
| CGCTTAACATATTCCCATGTGGTTTATTTTCGTATA | 123 |
| TTTTATCTTTTTGGTTCTGTGATGAAGCTACCCGCG | 80.3 |

Other studies, line by line
| Substance | target | assay | test system | conditions | scale | quantity | value |
| --- | --- | --- | --- | --- | --- | --- | --- |
| PhoQ, residues 284 288 289 292 302 303 SVHLDV | PhoP, residues 12 14 15 18 19 NNFVT (Escherichia coli, UniProt P23836) | Sort-seq, measured: YFP reporter | E. coli | PhoQ-PhoP variant library, together with: 10 µM Mg2+ | baseline: high Mg2+ state, higher = stronger signaling | fold induction | 5.53 |

A few entries again (series 3):
| Oligonucleotide | fluorescence intensity [a.u.] |
| --- | --- |
| AAAGCGGTAATTTGCAGAGTGGGTGCAGATATCTAT | 74.6 |
| AAATTACTAAGTTGTCACGTGTTTTACCCCGTATGA | 6410 |
| AAATTACTAAGTTTTCACGTGGAGTACCCCGTATGA | 559 |
| TCTTGTTCGGCCGGTAGCGTGCCGATTCAGGTAACG | 73 |
